Measurements pooled from the literature.
Every numbered part comes from another study and shows a few of its results, in no order. Positions count from the first letter of the parent shown.

Sample 1
Target: RING finger protein unkempt homolog, zinc fingers 1-6, GST-SBP tag (UNK, Homo sapiens, UniProt Q9C0B0, residues 30-357)
Method: RNA Bind-n-Seq
Molecule type: RNA
Matrix: in vitro
Tested at: not given
Notes: RNA with constant flanks, human-mouse chimeric sites, ends assumed
Baseline: input RNA pool
Direction: higher = stronger binding
Measurement: bound/input enrichment
Shared flanks, not repeated: GGGAGUUCUACAGUCCGACGAUC … CAACAGAGGAUUGAGCAUCA
Residues (chain): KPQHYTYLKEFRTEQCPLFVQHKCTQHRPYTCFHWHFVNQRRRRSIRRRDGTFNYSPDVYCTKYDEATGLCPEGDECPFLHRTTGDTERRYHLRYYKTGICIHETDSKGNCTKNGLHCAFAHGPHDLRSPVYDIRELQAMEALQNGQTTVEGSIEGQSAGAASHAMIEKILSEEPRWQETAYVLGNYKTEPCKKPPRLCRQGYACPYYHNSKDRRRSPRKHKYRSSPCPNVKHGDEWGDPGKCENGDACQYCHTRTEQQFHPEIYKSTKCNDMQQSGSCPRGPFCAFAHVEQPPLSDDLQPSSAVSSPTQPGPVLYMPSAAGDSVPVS
CUGUGACCACAAGAUCCUACCUGAGUGUUCAGAUGGGUUGACUCCCUCUCCUUGCCUGAACCCCCCCCCACUGCCCCCCCAUCCCCCAGUGUCGGCUGAGAUGUUGCCAGCAGACAGUUC: 0.33 ratio
UGGGCACUCUAUCAGAUAUAUUAAUUUUUUAAUGUAGAUAAAAUUUCAAAAAUGAAUGGCUACUUUACACGUUUAACUAGGGUUUUACUAUAUAUGUGUACAUAUGUAUAUAUAUAUAUA: 23.4 ratio
UACUCAACUUUCUUUCCACAUUUUGAAUUCCAAGACAUUAUUCCUCCAGAUGACUUCCUAACGAGUGAUGAAGAGCAAGAUUUGGUUUUAUUUGGAACUAUGAGAGGUCAUGUGGUUGGA: 0.185 ratio
UAACCACAUCAAGAUGGUUGGAAAGCUGAAGCAGAACUUACUCUUGGCGUGUCUGGUGAUUAGUUCUGUGACCGUGUUUUACCUGGGCCAGCAUGCCAUGGAAUGCCAUCACCGAAUAGA: 0.167 ratio
AGAUUCCCCCUCCUGAGACCUCCUCCGAAGUUGGAGUCUCUUACAGAUGCCUCAUCCCCUGUUAGCGUUUUAGUUUGGACCACACAACCUUGGACGAUUCCCGCCAACCAGGCAAUUUGC: 1.77 ratio
GGCUGCUGGUGACUGUCGGGAGCCGUCCGUGUCACCGGCCGGAGCGCGGCCAGACUAAUUUUAGAAAAUGCCAAGUAGGAAGUUUGUUGAGGGUGAAGUGGUCAGAGGCCGAUGGCCUGG: 2.32 ratio
CGGAAGUUCUUGAUUUAUCAUUUUUCUCUUUUCUUUCUUUCCUUUAGGAAAAGCCUAAAGAUUAGGUUGUAAGAAAAACAGAAGCCAUGUUUCGAAGACCUGUGUUACAGGUAUUUCGUC: 0.166 ratio
AGAUUCCCCCUCCUGAGACCUCCUCCGAAGUUGGAGUCUCUUACAGAUGCCUCAUCCCCUGUUAGCGUUUUGGUCUGGACCACACAACCUUGGACAAUUCCCGCCAACCAGGCAAUUUGC: 0.912 ratio
CGCCUGGAUGAGGCUGGUGUCACAGAUGAAGUGCUAGAUUCUGCCAUGCAAGCCUUCCUUCUGGAGGUCAUUGUUAAACAUGGGGAGCCGGCACCUUAUUUAUGUAACAAAGAUCCGUUU: 0.0899 ratio
ACAGUUAUAUUGUUGAGUUUCAUUUUCAUAUAUUCUUGUAGUGUCUGCUUGCCUGUGUCUUUUAGUAAAAUAAAAUAAGCCUUUGAAAAUAUUUUAGCAUGGUAUUUAACAUUUUCUAAA: 3.61 ratio
UCUGGUCACACUCGUGUGUAUGGUGUUUGCUUUGUGGACACUUCACUGGGCAAGUUUUUCAUCGGCCAGUUUUCGGAUGACCGCCACUGUUCGAGAUUUAGGACGCUAGUGGCACACUAU: 0.193 ratio

Sample 2
Target: Centromere-binding protein 1, full length, His-tagged (CBF1, Saccharomyces cerevisiae, UniProt P17106, residues 1-351)
Chain of UniProt P17106 (whole entry, looked up): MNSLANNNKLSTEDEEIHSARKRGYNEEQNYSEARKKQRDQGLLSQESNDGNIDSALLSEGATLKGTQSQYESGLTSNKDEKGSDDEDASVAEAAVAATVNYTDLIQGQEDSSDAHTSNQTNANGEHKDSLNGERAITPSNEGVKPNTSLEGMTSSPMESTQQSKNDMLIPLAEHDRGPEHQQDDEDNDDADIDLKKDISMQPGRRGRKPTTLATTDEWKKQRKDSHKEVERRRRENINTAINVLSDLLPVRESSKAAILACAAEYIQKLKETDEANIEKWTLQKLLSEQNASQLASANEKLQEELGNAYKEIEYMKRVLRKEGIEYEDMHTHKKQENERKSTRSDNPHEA
Method: competition protein-binding microarray
Molecule type: double-stranded DNA, one strand shown
Matrix: in vitro
Tested at: 2 µM
Notes: whole 60-bp probe, lowest competitor level
Together with: Pho4 competitor, 0.05 µM
Direction: higher = stronger binding
Measurement: fluorescence intensity
Shared flanks, not repeated: … GTCTTGATTCGCTTGACGCTGCTG
CTAACGAAGGTTTGCCCAGTGGGTGACAAGCCAAGT: 56.4 a.u.
AAATTACTAAGTTGCGGCGTGGGTGACGCCGTATGA: 62.4 a.u.
AAGTGCAGATCGCTGTCTTGCTCCAATCCTCTTATT: 60.4 a.u.
CGCTTGTACAAGCTGAACGTGAGAAGCAACGATCCT: 87.1 a.u.
TGCGCAACAACTTTTCACGTGTGATTATGTCTAGAA: 800 a.u.
TGCGCAACAACTTGGGCTGTGGGTGTATGTCTAGAA: 59.8 a.u.
ATATTATTGATTTTGCACGTGACGAAATGAAAAACA: 7360 a.u.
ACCTTGCGGCGATATCACAATTTTCCTTGTACACTC: 84.3 a.u.
CTTTCCCGATCTTGTAAGGTGGGTGTAGCACATTTG: 62.4 a.u.
CCCTGCCGTCCTCAACACGTTGCACCATTTGATGTT: 101 a.u.
CGCTATTTTCGCCGTCACATGTCAATAAAAGCAGAT: 1970 a.u.
CTTTCCCGATCTTGGAATGTGGGTGTAGCACATTTG: 65.8 a.u.
CTTTCCCGATCTTGTCACCTAACTTTAGCACATTTG: 82.7 a.u.
CGGGGTTAAGTTTGTTAGGTGGGTGGCTTGCAGCAG: 84.9 a.u.
GCGGTCCCTGTCCTGCACACTGCACTCAACACCATA: 53.4 a.u.
GTCTTGTCTCATTGGGCGGTGGGTGTCCCCACTTCA: 78.2 a.u.
ACCCGGGCAGCCGTTTCCGTGCCGAGGTTCCTCCGA: 44.8 a.u.
CGTCCTAGTGATTGTCACAACACTTCCATGAGGAAG: 121 a.u.

Sample 3
Target: ABI1, truncated, D143A, DHFR fusion (Arabidopsis thaliana)
Method: DHFR PCA, deep sequencing
Matrix: yeast
Notes: methotrexate growth selection, single substitutions
Together with: (+)-ABA 0.0091 µM
Baseline: wild-type fitted maximum
Direction: higher = stronger binding
Measurement: relative binding score
Starting sequence: PYL1, truncated, DHFR fusion (Arabidopsis thaliana); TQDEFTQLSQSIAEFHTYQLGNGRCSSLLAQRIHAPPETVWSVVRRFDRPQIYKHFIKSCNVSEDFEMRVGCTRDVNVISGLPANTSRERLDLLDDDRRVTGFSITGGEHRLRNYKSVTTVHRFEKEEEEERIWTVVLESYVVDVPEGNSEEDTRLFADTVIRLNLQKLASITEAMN
Q167W: -3.24%
V100H: -10.9%
I133M: 23.8%
R74Q: -10.8%
E125L: 13.8%
E127L: 31.5%
V118T: 31.6%
I172V: 53.8%
Q7T: 23.1%
E128T: 27.1%
S63L: -1.64%
K58F: -0.411%
I105C: -5.33%
K54H: 3.66%
E129Y: 9.31%
E147D: 35.4%
D95L: -4.86%
Q7W: 23.9%
I33Y: 3.03%
L138S: 1.06%
Q167K: 26.5%
E152Q: 10.9%
N22V: 33.2%
D153E: 15.7%
H16S: 1.73%

Sample 4
Target: RNA binding protein fox-1 homolog 2, RRM domain, GST-SBP tag (RBFOX2, Homo sapiens, UniProt O43251-10, residues 100-194)
Method: RNA Bind-n-Seq
Molecule type: RNA
Matrix: in vitro
Tested at: 365 nM
Notes: natural RNA segment, single round, ends assumed
Baseline: no-protein control
Direction: higher = stronger binding
Measurement: RBNS enrichment (R)
Shared flanks, not repeated: GGGAGUUCUACAGUCCGACGAUC … UGGAAUUCUCGGGUGCCAA
Residues (chain): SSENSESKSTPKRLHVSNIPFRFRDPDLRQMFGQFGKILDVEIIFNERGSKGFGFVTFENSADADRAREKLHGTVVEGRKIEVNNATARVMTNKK
AUUAGAGUCAUUUGAUCCAAGUUGGAGUCAGACACAGUAUUUGAGCUGCACGGCUUCUGGGUUCUCCCACCUUAUUUGAUCAUAUUCGAAAGAUUAUUUCCUGUGUUUGC: 0.566
UGGCUUCCAUGAAUCAGUACUGUUGUUAAAAGCAGAGCUCUGCUGUUAAGAGGUUCUGUUUCUAAGGGACUGCUGAGUUAGAUUAGUAUAUACGUGGCAGUAGUUCAGCA: 5.66
ACAGGAGUACUGGAGGGAUUUGCAAGCUAACGGGCCAAAUGCUUCCAUAGGAAUAAGGCAUGCCCAGCUAACAGAAAUUUAAGUCCCUCUUCCCCACCUCUCUCAUCUAG: 0.377
CAUCACUUAGUUAUUGGGAAUUUCUUUGUUGGAAACAGGAAAAUUUUUUUAGAUUAUUUGGUGUACGGUUUUGCUCACAACAAUAGGUGGAAGUUGCUAGUGCAGUCUUG: 0.749
ACAGAACCCUUUUCCUGACUCUCAUGGAAGAUGGUGGAAGGAAAAUAGACUGUCUCAUCAACCCUCCUGUGUCCUCUGAAGCAAUCUCAGUUUUUAUUAACCACCUCUUC: 0.336
AUGAUAUUGUGUAUUAAGACAUUCCUUAAUUAAAUUAGGACAAAAUGGCUGCUGUAUAUUUACAAUAUGGAAUUCUGAGUUAAGUACCGCCCUUCAUACUGGGAACAGAA: 0.289
UAAGUUGUUUAUAUUUGGUAAAAGGUUCAUUUGUCCCUUUUAGCUCUUAAAUAUCUCGAUGUAUUUAAUGCCUUGUUUUCUCUCCUGCCGCAGGAUAAAGAAAAUGAUAA: 0.384
GGUCUGCGGUAGAGAUGGUUUCUGGCAGCCGCAGCAGCCCCAGGUACCUAGCCUCCCCUGGCUGCUCUCCUGUCAGUGAGAUGCAGGAGCCGCCCUCUGCUCUCAGUGGU: 0.597
CUGGGAAGAUGGGGUAUUUCCCACUUCCAGCAACGAAAUAACAAAUGAAAAGUUGCAUACUUAUUGAUGUAUUGUAUGAGCCAGUAGCAUUUUAUGUACAAAACAGAAGU: 0.813
GAGAGAGAGCAGAGAGCGCCUCCUAUUCUACCGCGGCUGCCUCUGCCCCCACAGCACCCACAGAUCCCUGGCCCUUCCAGGAGUAAGUCCUGGGCAGGCAGAGCUGGGGU: 0.26
GGUACUUAUAUAAAAUCUAGUCCAGUUCUCUCAUUUAAAAAAAUGAAGACACUGAAAUACAGACUUAAAUAGCUCAGAUAGCUAAUUAGGAAAUUUCAAGUUGGCCAAUA: 0.367
UGAUAGUUGGCCUCUGGUCUACAAAGAUUUCAUAACUCCUUGGAAAGCUUCUUAUAAUCAUUCUUAACUUCUUGGUAGCUAGAAAUUUAGAGUAGUUGAAAUCUUUAGGA: 0.552

Excerpt of the above (sample 3):
E125L: 13.8%
I105C: -5.33%
E127L: 31.5%
I33Y: 3.03%
S63L: -1.64%
E147D: 35.4%
Q167K: 26.5%
